# Experimental data from different studies.
# Each numbered part is a random draw from the data of one study; scales do not carry over between parts.

# Sample 1
# Target: RNA binding protein fox-1 homolog 2, RRM domain, GST-SBP tag (RBFOX2, Homo sapiens, UniProt O43251-10, residues 100-194)
# Technique: RNA Bind-n-Seq
# Molecule type: RNA
# Sample: in vitro
# Concentration: 365 nM
# Setting: natural RNA segment, single round, ends assumed
# Relative to: no-protein control
# Reading: higher = stronger binding
# Residues (chain): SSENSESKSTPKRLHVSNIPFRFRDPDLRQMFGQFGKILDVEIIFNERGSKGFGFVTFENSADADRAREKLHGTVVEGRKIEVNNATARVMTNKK
Strand,RBNS enrichment (R)
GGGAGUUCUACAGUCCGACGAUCAUUAUUCAGGAGGGCUGGGGGGGCUCCCUGGUUCUGAGCAUCAUCCUUUCCCCUCCCCUCUCUUCCUCCCCUCUGCACUUUGUUUACUUGUUUUGCACAGACGUGGGCCUUGGAAUUCUCGGGUGCCAA,1.47
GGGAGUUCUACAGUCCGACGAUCUUUAUGUUUCCAUGCCAGAGUUUGUGUGGGCGGGCGCAUGUGCACCACAGAGUGCACUCGAGGGGACUUUCAGUCACAGGAUUUCAUAAUUGUCAUUGUCACACUUUCAAUGGAAUUCUCGGGUGCCAA,6.98
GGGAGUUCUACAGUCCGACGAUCCUGUGGCGUGGCCAGGCCGGGGCAUGGCUCUUACCCGGGGAGUGGUGGGCAUCUCGAUGCUUCUUUGCCUUAAUGAUGGCCACAUCUGGGCUGCUCUGCACCCACGGGAGUGGAAUUCUCGGGUGCCAA,0.36
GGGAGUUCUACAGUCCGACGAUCCCUUCCUAGACCCUUGGACUCUCAGAUGCAGGGCCCUUGGCUCUGGCCUCUCACCCCCAAGGCUGUCUCUGGCCCUGCCGAGCCUAUGGGAGUCCCGGGACAGAGUGCCCUGGAAUUCUCGGGUGCCAA,0.255
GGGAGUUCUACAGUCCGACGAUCCAUGAAUGAUAACAGGCCUCGGCUUUAUCACCCAAAAAAUAACUUGAAUUCUAUGUGAAAUGUGUUAGGAUAAGUUUGCUCUGUCUCUAGAGUUCAAUGUAGAAGAUAAUUGGAAUUCUCGGGUGCCAA,1.59
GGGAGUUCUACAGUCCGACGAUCUACAGGUGAAUGUGCCACCUCCACAAAUGGCUUCUCCGAGUGAGUCACGUCACCUGGUGCGUGGAGGUGGAGCCUGCGGCUGGAGUAAGGCUUGCUGUGGGACGCCCUCGUGGAAUUCUCGGGUGCCAA,1.72
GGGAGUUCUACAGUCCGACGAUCUUCCUCCCAGGAGCCCAUGCUCAGGCCUCCCACACCAGGACCUCAGGCUGAGAGCUGAGCAGAGCACACUAGGCAGGGAAAGCCAUGUGGGUCUCCAGUCCUGUUUGCCUUGGAAUUCUCGGGUGCCAA,0.672
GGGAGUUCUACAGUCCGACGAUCUCUUUAGUUACAUUCAGAUUUGUAACUUUAUAAACAUGUUUUCUGCCUGAGGUACUUUUUAAGGAGGUAGUGUACAUGGGACCUUUUUGAAGUAGACUGGAUAAGGGCCAUGGAAUUCUCGGGUGCCAA,0.817
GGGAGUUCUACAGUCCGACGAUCGUUUUUAAAACCCAGUCCACAAAAUAACCAAUCCUGGACAUGAAGAUUCUUUCCCAAUUCACAUCUAACCUCAUCUUCUUCACCAUUUGGCAAUGCCAUCAUCUCCUGCCUGGAAUUCUCGGGUGCCAA,1.28

# Sample 2
# Target: Interferon regulatory factor 7, full length, phosphomimetic (IRF7, Homo sapiens, UniProt Q92985, residues 1-503, S471D/S472D/S475D/S476D/S477D/S483D/S484D/S487D)
# Technique: protein-binding microarray
# Molecule type: double-stranded DNA, one strand shown
# Sample: in vitro
# Concentration: 2200 nM top
# Setting: 60-bp whole probe
# Added: salmon DNA 0.4 mg/ml
# Relative to: random background probes
# Reading: higher = stronger binding
# Constant ends, left off below: GCCTAGCAC … GTCTTGATTCGCTTGACGCTGCTG
# Target sequence (chain): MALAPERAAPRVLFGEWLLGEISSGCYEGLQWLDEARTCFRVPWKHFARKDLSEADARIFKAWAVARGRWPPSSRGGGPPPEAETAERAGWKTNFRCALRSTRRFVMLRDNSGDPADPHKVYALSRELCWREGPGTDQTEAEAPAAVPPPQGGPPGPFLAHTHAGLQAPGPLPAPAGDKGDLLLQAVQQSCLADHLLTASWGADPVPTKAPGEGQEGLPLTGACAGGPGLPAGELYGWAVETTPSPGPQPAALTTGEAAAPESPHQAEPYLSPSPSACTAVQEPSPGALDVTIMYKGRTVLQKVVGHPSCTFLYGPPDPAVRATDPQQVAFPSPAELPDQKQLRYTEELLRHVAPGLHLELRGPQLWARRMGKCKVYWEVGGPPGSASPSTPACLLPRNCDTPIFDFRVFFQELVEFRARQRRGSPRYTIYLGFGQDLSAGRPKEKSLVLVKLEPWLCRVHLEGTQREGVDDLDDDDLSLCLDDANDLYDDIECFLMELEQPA
Strand,fitted relative affinity [z-score]
CGACATCTGCAAGATCCACAAGTGCTA,0.543
TCATGCCTCATCTTGCAGACTGTGCTA,0.875
TTGGATTTCAGTTTCGATTAGTGCTAG,8.24
GACCGTTTCCTTTCCCTGACGTGCTAG,3.87
GACGGTTTCCTACTGCTGATGTGCTAG,1.77
TTAGGTTTCCTACTGCGTTAGTGCTAG,1.01
TTATGTCTCCTACTGCTTTAGTGCTAG,1.63
TTAGATATCGGGACTTGATTAGTGCTA,-0.33
CTCAGGTAATATTTCCTGCTGTGCTAG,0.325
GACGATTACGGGACTGGAGACGTGCTA,-0.212
GACGGTTTCGGTATCGGGGCGTGCTAG,8.39
TCTCCTTTCGGAATACCCTCGTGCTAG,6.62
GACGGTTTCGGTATCGGAACGTGCTAG,7.43
TCAGATCTCCGAGATGCCACTGTGCTA,0.51
CACGATTTCGGGTTTCGAGACGTGCTA,5.75
GAAGGTTCCGGTTTCGGGACGTGCTAG,5.56
TTAGGTCACGGTTTCGGTTAGTGCTAG,5.38
GACGATTCCGGGTATCGAGACGTGCTA,0.897
TTAGAACTGGGGACTGGATTCGTGCTA,-0.339
GACGGTTTCGGATTGGGGACGTGCTAG,9.73
TTAGGACTGCGTTTCCTTTAGTGCTAG,0.608
TTAGAACTGAGTTTCGATTAGTGCTAG,3.42
TTAGAGTTCGGGACTGGATTAGTGCTA,-0.589
AAAAAAAATGGAAATCTACCCGTGCTA,-1.66
TCACCTTTTAATTTTTAACTGTGCTAG,1.18

# Sample 3
# Target: RING finger protein unkempt homolog, zinc fingers 1-6, SBP tag (UNK, Homo sapiens, UniProt Q9C0B0, residues 30-357)
# Sequence of UniProt Q9C0B0 (30-357, looked up): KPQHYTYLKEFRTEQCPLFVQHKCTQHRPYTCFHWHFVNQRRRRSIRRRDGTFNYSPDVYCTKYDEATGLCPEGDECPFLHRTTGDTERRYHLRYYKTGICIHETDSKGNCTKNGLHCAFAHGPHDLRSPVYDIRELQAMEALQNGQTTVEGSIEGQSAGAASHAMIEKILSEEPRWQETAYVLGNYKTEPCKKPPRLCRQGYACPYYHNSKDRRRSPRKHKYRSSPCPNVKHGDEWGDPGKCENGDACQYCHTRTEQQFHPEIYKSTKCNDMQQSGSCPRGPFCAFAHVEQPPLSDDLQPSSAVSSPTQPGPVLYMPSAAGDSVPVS
# Technique: RNA Bind-n-Seq
# Molecule type: RNA
# Sample: in vitro
# Concentration: 100 nM
# Setting: RNA with constant flanks, vertebrate orthologous sites, ends assumed
# Relative to: input RNA pool
# Reading: higher = stronger binding
Strand,bound/input enrichment
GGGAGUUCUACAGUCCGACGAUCAGACUUAUAUUGUGGCAUAUAGUCAACACGGAAGUAGACCAGCUCUGCUGAUUGGAAAUUUAGAUUUUUUAAUUAUGUACUGGGGACAGGUUUUUGUCGCUUUACAUUGCUUCCUAGUUUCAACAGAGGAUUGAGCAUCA,3.09 ratio
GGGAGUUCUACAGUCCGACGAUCAUCCCUCAGUGACAGUAUGCCAUCUGUAGCAGAUUCUCACUCUAGUCAUUUUUCUGAAUUUAGUUGUUCUGACCUAGAAAGCAUGAAAACGUCUUGUAGUCAUGGUUCCAGUGAUUAUCACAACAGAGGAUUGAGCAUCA,1.82 ratio
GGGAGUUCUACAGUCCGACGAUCAGAAAAUUUUAACCAAGAAUCCGAAGGUAGAAAUACAGGACCAUGGUUAUCUUCUUCAUUUAGAAAUAGGUGUACACCUCUGUUUUCUAGAAGGAGGCGAGAGGGAAGAGAUGAAUCUUCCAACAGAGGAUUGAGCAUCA,0.462 ratio
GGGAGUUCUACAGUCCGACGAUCAAUGUGGCUUUUGCUUCAUUAAGAGUAAAAAAAUAGCCCCCUCAAUUUAAAAUGUCUAAAUAGCUAUUUUAAAAAUCAAAAUGUUUAAAUUUUGUAAAUCACCUGAUGUCAGUACACACCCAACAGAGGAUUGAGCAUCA,0.362 ratio
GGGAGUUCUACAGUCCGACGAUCCCAGCCUUCCGUAUAGGGUCGGCCUUAAAUCUGUAGGAUUUAUGGCAAAUGUAUUAUAUAUAAUUGCAUUGAGUUUAAUAUUUUUUAUUACCCUGUAAAUGAAGAUGGCAUCUCCUACAUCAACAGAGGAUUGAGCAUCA,0.231 ratio
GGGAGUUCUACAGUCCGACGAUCUCAGAUGGUGGUUGUACAUUAUUCAUUUAGAAAAUAUAAAAAUUCAUUUUGUUUUGAAGCUAGGCAUUAAACUGGAAUAGCAGUUUUACCCCUGAGAAUGGGGCCCUUCCCUUGACAUUCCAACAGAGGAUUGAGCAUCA,3.4 ratio
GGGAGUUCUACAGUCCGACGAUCGUUGUGACCCAUUUAACAUACACAAAAAACUAGCCAAAAAAAAUUUGCAUGUAAUUGACUUAGAUGAUGCCACUUUUCUGAGUGCAAAAUUUGGAAGGCAGCUUGUACCUGGUUGGAAGCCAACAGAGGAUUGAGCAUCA,1.28 ratio
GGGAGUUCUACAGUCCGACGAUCAGAAAAUUUUAAUCAAGAAUCUGAAGGUAGAAAUACAGGACCAUGGUUAUCUUCCUCACUUAGAAAUAGAUGCACACCUUUGUUCUCUAGAAGGAGGCGAGAGGGAAGAGAUGAAUCUUCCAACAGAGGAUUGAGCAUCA,0.775 ratio
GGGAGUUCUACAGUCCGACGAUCCUCCUCUUAAUCCCAUCUCAUCUGUUUCAUAGUGCUGAAAUUCUAUCUUCAGCAUUAUUUUUAGUGAACUUGCUCCAACUCUAGAGAAACUUCCAGUAUGGAUACUGUGAGCUGUAUGGACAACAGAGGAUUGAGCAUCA,0.622 ratio
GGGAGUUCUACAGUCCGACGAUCCUACGGGCAGGGUGGUGGAGCCUAGGCCCUGCACCCACCAGCCACUUCAACCAGGCCAUUUAGUUCCAUGUUUUUUAUUUAACAGUGCCCUUACUUGUAUGUGCGUCCCAGACUGGAGAUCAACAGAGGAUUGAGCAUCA,1.09 ratio
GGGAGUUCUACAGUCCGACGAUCUCUUAUACUUAAACUGGUAUUUUCAAACAAUAGGAACCUAUUUUUCUUUUCUACAGUUUAGUGUGUAUCCGGCUUAUACAUGGAAGACUAAAAUGUUGAUUUGCUAAGUGUGGUCUUUGCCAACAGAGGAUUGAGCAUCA,0.351 ratio

# Sample 4
# Target: Histone acetyltransferase KAT6A, winged helix 1, GST fusion (KAT6A, Homo sapiens, UniProt Q92794, residues 1-85)
# Technique: protein binding microarray
# Molecule type: double-stranded DNA, one strand shown
# Sample: in vitro
# Concentration: not given
# Setting: 8-mer, flanks averaged, mean of 2 arrays, mostly near background
# Relative to: not given
# Reading: higher = stronger binding
# Construct (chain): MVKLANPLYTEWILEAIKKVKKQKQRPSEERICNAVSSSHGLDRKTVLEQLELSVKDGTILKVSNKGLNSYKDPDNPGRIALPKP
Strand,E-score
ACGGATCT,0.0309
GACCTCTC,-0.0831
GCGCGTCA,0.324
ATCCGCCC,0.216
CGGGGGAG,0.229
AACTTATT,-0.171
AGATAGCG,0.0326
AATTACCT,-0.101
TCTGGCAA,-0.291
TGAACTCA,-0.171
GCCTATGA,0.0728
AGATTGTG,-0.0341
ACACTCTG,-0.183
ATCAGAGA,-0.24
AGGTTGAA,-0.0124
GGCCCCTA,0.107
TTGCTAAA,-0.116
CTGTGAAA,-0.0633
CATGTCGA,-0.122
GTTGAAAC,0.0348

# For quick reference, copied from above (sample 3):
Strand,bound/input enrichment
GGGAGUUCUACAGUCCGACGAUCAGACUUAUAUUGUGGCAUAUAGUCAACACGGAAGUAGACCAGCUCUGCUGAUUGGAAAUUUAGAUUUUUUAAUUAUGUACUGGGGACAGGUUUUUGUCGCUUUACAUUGCUUCCUAGUUUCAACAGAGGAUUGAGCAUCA,3.09 ratio
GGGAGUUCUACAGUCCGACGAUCAGAAAAUUUUAACCAAGAAUCCGAAGGUAGAAAUACAGGACCAUGGUUAUCUUCUUCAUUUAGAAAUAGGUGUACACCUCUGUUUUCUAGAAGGAGGCGAGAGGGAAGAGAUGAAUCUUCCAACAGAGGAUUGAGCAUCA,0.462 ratio
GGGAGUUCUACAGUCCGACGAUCAAUGUGGCUUUUGCUUCAUUAAGAGUAAAAAAAUAGCCCCCUCAAUUUAAAAUGUCUAAAUAGCUAUUUUAAAAAUCAAAAUGUUUAAAUUUUGUAAAUCACCUGAUGUCAGUACACACCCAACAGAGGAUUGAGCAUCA,0.362 ratio
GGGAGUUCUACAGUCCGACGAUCUCUUAUACUUAAACUGGUAUUUUCAAACAAUAGGAACCUAUUUUUCUUUUCUACAGUUUAGUGUGUAUCCGGCUUAUACAUGGAAGACUAAAAUGUUGAUUUGCUAAGUGUGGUCUUUGCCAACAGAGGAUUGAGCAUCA,0.351 ratio
